Measurements collected from several papers.
Lines come from different studies, so protocols differ. Several values in a cell are separate wells, animals, samples, runs or records. ± gives the spread as reported.

For NC[C@@]1(CC(=O)O)[C@@H]2CC[C@H]3C[C@@H]2[C@@H]1C3, the unbound AUC(0-t) was 3450 ng·h/mL (human, moderate renal impairment, plasma; dose not given, geometric mean).
Under bench-top stability, C/C(=N\c1ccc(O)cc1)c1cc2ccccc2n1C is recorded as “stable” (rat, plasma; 4 h, room temperature).
O=c1ccc2c(OCCCCOc3ccccc3)c3ccoc3cc2o1: “trough plasma concentration” 350 ± 78 nM (HPLC-MS; Lewis rat, plasma; oral gavage, 50 mg/kg daily for 3 months, 24 h post-dose).
With COCCN(C)C(=O)c1ccc([C@H]2[C@@H](F)[C@@H](F)C[C@@H](F)[C@H]2F)cc1 the hepatic clearance was 19 mL/min/kg (liver microsome stability; dog liver microsomes; 1 µM).
CC(C)C[C@@H]1NC(=O)CNC(=O)[C@H](CC(N)=O)NC(=O)[C@H](CCCNC(=N)N)NC(=O)[C@H]([C@@H](C)O)NC(=O)[C@@H]2CSSC[C@@H]3NC(=O)[C@H]([C@@H](C)O)NC(=O)CNC(=O)CNC(=O)[C@H](C(C)C)NC(=O)[C@@H]4CSSC[C@H](NC(=O)[C@H]([C@@H](C)O)NC(=O)[C@H](CSSC[C@H](NC(=O)[C@H](C(C)C)NC(=O)[C@@H]5CCCN5C1=O)C(=O)NCC(=O)N[C@@H](CCC(=O)O)C(=O)N[C@@H]([C@@H](C)O)C(=O)N4)NC(=O)CNC(=O)[C@@H]1CCCN1C(=O)[C@H]([C@@H](C)O)NC(=O)[C@H](CC(N)=O)NC3=O)C(=O)N[C@@H](CO)C(=O)N[C@@H](Cc1c[nH]c3ccccc13)C(=O)N1CCC[C@H]1C(=O)N[C@@H](C(C)C)C(=O)N2 gave a remaining peptide of 96.3 ± 0.7% (HPLC; water; 180 µM, 14 days, 37 °C, deamidation stability).
O=S(=O)(c1ccc(-c2ccc3nccc(Nc4ccncn4)c3c2)cc1)N1CCOCC1 gave a brain concentration of 60.4 ng/mL (female BALB/c mice, brain homogenate; intraperitoneal, 10 mg/kg, 0.25 h, mean).
The fu of Cc1cc(C)c(CNC(=O)c2cc(Cl)c3c(c2C)O[C@@](C)([C@H]2CC[C@H](N(C)C)CC2)O3)c(=O)[nH]1 is reported as 0.22 (ultracentrifugation; human plasma; 10000 ng/mL, 160 min).
Under “adverse events incidence”, C=CC(=O)NC1CCN(c2ncc3ncnc(Nc4ccc(Oc5ccc6c(c5)ncn6C)c(C)c4)c3n2)CC1 is recorded as 19% (refers to: total adverse events; human male; oral, dose not given, CTCAE on-treatment AEs).
Cc1cc2sc(N)nc2c2cccnc12 has an MRT(0-inf) of 4.89 h (female BALB/c mice, plasma; intraperitoneal, 30 mg/kg).
C=CC(=O)Nc1cc(Nc2nccc(-c3cn(C4CC4)c4ccccc34)n2)c(OC)cc1N(C)CCN(C)C gave a relative error of -3.2% (freeze-thaw stability; rat plasma; 1 ng/mL, three freeze-thaw cycles; reference: nominal concentration).
For Cc1ccc([C@@H]2O[C@H](CO)[C@@H](O)[C@H](O)[C@H]2O)cc1Cc1ccc(-c2ccc(F)cc2)s1, “urinary magnesium excretion change” read 4.57 mg (Japanese type 2 diabetes patients; 200 mg, day 17, 24 h urine collection; reference: baseline).
With O=C(N[C@H](Cc1c[nH]c2ccccc12)C(=O)Nc1ccncc1)c1ccc(N2CCN(c3ccc(F)cc3F)CC2)cc1F the concentration was 12.8 µM (Swiss Webster mouse, female, fat; oral, 50 mg/kg, 2 h, 20% Kolliphor vehicle).
For CC(C)(C(=O)N1CCOc2c(C#N)cncc2C1)C(F)F, “subjects with adverse event” read 16.7% (refers to: back pain; human; oral, 10 mg, CSF pharmacokinetic cohort).
CC(C)NCCCC[C@@H]1NC(=O)[C@H](Cc2ccc(O)cc2)NC(=O)[C@H](Cc2ccccc2)NC(=O)CC[C@H](C(=O)N[C@@H](CCCCNC(C)C)C(=O)N[C@@H](CCCCNC(=O)[C@H](CCC(=O)O)NC(=O)[C@H](CCC(=O)O)NC(=O)[C@H](CCC(=O)O)NC(=O)CN2CCN(CC(=O)O)CCN(CC(=O)O)CCN(CC(=O)O)CC2)C(N)=O)NC(=O)CNC(=O)[C@H](Cc2ccc3ccccc3c2)NC(=O)[C@@H](CCCNC(=N)N)NC1=O [gallium-68 labelled] has a tissue uptake of 4.28 %ID/g (mouse with PC-3 xenograft, kidney; intravenous, 1 h).
The hepatic clearance of CN1CCN(C(=O)c2ccc(C3CCCCC3)cc2)CC1 is reported as 3.9 mL/min/kg (liver microsome stability; human liver microsomes; 1 µM, without NADPH).
N#Cc1ccc2c(c1)[C@H]1CCCN(C(=O)c3ccc4[nH]cnc4c3)[C@H]1C2: “total testosterone level” 14.5 nmol/L (human males; 160 mg, day 15).
CC(C)c1nc(N(C)S(C)(=O)=O)nc(-c2ccc(F)cc2)c1/C=C/[C@@H](O)C[C@@H](O)CC(=O)O — result for “subjects with adverse event”: 0% (refers to: nervous system disorders; healthy men; oral, dose not given, 8 days, treatment-emergent, crossover trial).
Under “milk fat partition ratio”, CC(C)(c1ccc(O)cc1)c1ccc(O)cc1 is recorded as 13.7 (cow whole milk; 20 nM; reference: milk fat over skim milk).
CC(=O)O[C@H]1C(=O)[C@@]2(C)[C@H]([C@H](OC(=O)c3ccccc3)[C@]3(O)C[C@H](OC(=O)[C@H](O)[C@@H](NC(=O)c4ccccc4)c4ccccc4)C(C)=C1C3(C)C)[C@]1(OC(C)=O)CO[C@@H]1C[C@@H]2O — result for “adverse event incidence”: 24% (refers to: Vomiting; patients with advanced solid tumours; intravenous, dose not given, all grades, possibly related to drug).
For CNC(=O)c1ccc(-c2cnc3ncc(Cc4ccc5ncccc5c4)n3n2)cc1F, “patients with adverse event” read 22% (refers to: Diarrhea, all grades; cancer patients; oral, 600 mg twice daily, other expansion cohort, any causality).
Under “TEAE decreased neutrophil”, O=C(O)CCC(=O)O.[2H]C([2H])([2H])Oc1cc(C)c2[nH]ccc2c1CN1CC[C@@H](C2CC2)C[C@H]1c1ccc(C(=O)O)cc1 is recorded as 0% (healthy Chinese subjects; 100 mg, single ascending dose).
For O=C(Nc1cnccc1Cl)N1CCN(Cc2ccc3c(c2)OC(F)(F)O3)CC1, “hepatic enzyme increased” read 0% (multiple ascending dose; young men; 75 mg, treatment-emergent adverse events).
For C=CCn1c(=O)c2cnc(Nc3ccc(N4CCN(C)CC4)cc3)nc2n1-c1cccc(C(C)(C)O)n1, the AUC(0-10 h) was 4.28 µM·h (human patients; oral, 125 mg twice daily, monotherapy, -5 day lead-in).
O=S(=O)(On1nnc2ccccc21)c1cc(C(F)(F)F)cc(C(F)(F)F)c1: “degradation rate constant” 2 h⁻¹ (chemical stability, HPLC-MS; borate buffered saline; pH 10.2, no N-acetyl-lysine).
The hepatic clearance of N#CCC(=O)Nc1ccc([C@H]2[C@@H](F)[C@@H](F)C[C@@H](F)[C@H]2F)cc1 is reported as 25 mL/min/kg (liver microsome stability; mouse liver microsomes; 1 µM).
For Nc1ncnc2c1c(-c1ccc(Oc3ccccc3)cc1)nn2[C@@H]1CCCN(C(=O)C(O)CO)C1 (some centres unmarked), “maximal concentration threshold” read 225 mg/L (B-LPD patients; hypertension risk, ROC).
Cc1ccc(Sc2ccccc2N2CCNCC2)c(C)c1: “participants with TEAE” 0% (refers to: blood creatine phosphokinase increased; healthy adult men; oral, 10 mg daily, 12 days).
With CCOc1c([C@H](C)n2nc(C)c3c(N)ncnc32)cc(Cl)c(F)c1[C@@H]1CNC(=O)C1 the Cmin was 0.295 ± 0.0831 µM (patients, monotherapy; oral, 30 mg once daily, cycle 1 day 15).
CCN1/C(=C/C(C)=O)Sc2ccc(F)cc21: “mean blood pressure” 90 ± 2 mmHg (cynomolgus monkey; oral, 100 mg/kg, 4 h post-dose).
Under “patients with adverse event”, O=C(Nc1nc2cccc(-c3ccc(CN4CCS(=O)(=O)CC4)cc3)n2n1)C1CC1 is recorded as 5.9% (refers to: angina pectoris; rheumatoid arthritis patients; oral, 30 mg once daily, 4 weeks, any relatedness).
With CO[C@H]1C[C@@H]2CC[C@@H](C)[C@@](O)(O2)C(=O)C(=O)N2CCCC[C@H]2C(=O)O[C@H]([C@H](C)C[C@@H]2CC[C@@H](OC(=O)NCCOCCOCCOCCOCCOCCOCCOCCOCCC(=O)N3CCc4cc(Cn5nc(-c6ccc7oc(N)nc7c6)c6c(N)ncnc65)ccc4C3)[C@H](OC)C2)C[C@@H](O)[C@H](C)/C=C(\C)[C@@H](O)[C@@H](OC)C(=O)[C@H](C)C[C@H](C)/C=C/C=C/C=C/1C the AUClast was 0.679 µM·h (human patients, plasma; intravenous, 12 mg, cycle 1 day 15, weekly dosing, mean).
O=C(COCC(F)F)Nc1ccc(C2CCCCC2)cc1 gave a hepatic clearance of 19 mL/min/kg (hepatocyte stability; cryopreserved human hepatocytes; 1 µM).
CNCc1ccc(-c2[nH]c3cc(F)cc4c3c2CCNC4=O)cc1 gave a dysgeusia incidence of 0% (human patients; oral, 600 mg twice daily, grade 4).
C[C@@H](N)C1CCN(S(=O)(=O)c2cccc3cnccc23)CC1 — result for “participants, with TEAEs, treatment-related”: 16.7% (healthy volunteers; 75 mg, fasted).
With CCN1CCN(Cc2ccc(NC(=O)c3ccc(C)c(NC(=O)c4cncc(-c5cccs5)c4)c3)cc2C(F)(F)F)CC1 the plasma concentration was 80 ng/mL and 81 ng/mL and 44 ng/mL (LC-MS/MS; C57BL/6 mouse, plasma; intraperitoneal, 15 mg/kg single dose, 6 h).
With CCO[C@H]1CCN(Cc2c(OC)cc(C)c3[nH]ccc23)[C@H](c2ccc(C(=O)O)cc2)C1 the unbound AUC(0-12) was 9260 ng·h/mL (human severe hepatic impairment, plasma; oral, 200 mg single dose, geometric mean).
CC(C)n1c(Nc2cccnc2)nc2cnc(Nc3ccc(N4CCN(C)CC4)cc3)nc21 — result for “subjects with adverse event”: 0% (refers to: γ-glutamyltransferase increased; healthy male subjects; oral, 100 mg, study, added: gemfibrozil).
C=CC(=O)N1CCC(c2ccc(C(N)=O)c(-c3ccc(Oc4ccccc4)cc3)n2)CC1 — result for “incidence of grade ≥3 TEAEs”: 12.5% (CTCAE 4.03; patients with relapsed/refractory MCL; oral, 150 mg once daily).
CC(C)C[C@@H]1NC(=O)[C@H](C)NC(=O)[C@H](Cc2ccccc2)N(C)Cc2ccc([nH]2)CNC1=O has a -log Pe of 5.11 + 0.09 (PAMPA; 2% lecithin in dodecane; 100 µM, 17 h, pH 6.4, 37 °C).
COc1ccnc(C(=O)NC(CO)C(=O)O)c1O (racemic) has a KFoc of 358 mL/g (soil adsorption; clay soil; pH 7.6, organic carbon 1.7 %).
With Cn1nc2c(=O)n(C3CC3)cnc2c1[C@](O)(c1cnc(C(F)(F)F)c(Cl)c1)C(F)(F)F the AUC(0-96 h) was 923 µM·h (humanized SCID mice, blood; 30 mg/kg once daily, 6 days, infected).
For Cc1ccc(C(=O)N(CCCN)C(c2nc3snc(C)c3c(=O)n2Cc2ccccc2)C(C)C)cc1 (centres unmarked), “patients with adverse events” read 11% (refers to: Hypophosphatemia; human patients; intravenous, 16 mg/day, CTCAE grade ≥3).
With COc1ncc(-c2nc3c(n2C(C)C)[C@H](c2ccc(Cl)cc2)N(c2cc(Cl)cn(C)c2=O)C3=O)c(OC)n1 the Cmax was 18.8 ng/mL (LC-MS/MS, noncompartmental; human, plasma; oral, 2 mg, C1D8, low-dose, geometric mean).
CSCC[C@H](N)C(=O)N[C@@H](CC(C)C)C(=O)N[C@@H](CCCNC(=N)N)C(=O)N[C@@H](Cc1c[nH]c2ccccc12)C(=O)N[C@@H](CO)C(=O)N[C@@H](CCCNC(=N)N)C(=O)N[C@@H](CCCCN)C(=O)N[C@@H](CC(C)C)C(=O)N1CCC[C@H]1C(=O)N[C@@H](CS)C(=O)N[C@H](C(=O)N[C@@H](CO)C(N)=O)C(C)C gave a remaining activity of 8 ± 2% (12G5 competition, SUP-T1 cells; human plasma; concentration not given, 2 h).
For Cn1cc(-c2cn3nccc3c(-c3cnn([C@]4(CC#N)C[C@@H](C#N)C4)c3)n2)cn1, the Vz/F was 2940 L (healthy human fed; dose not given, day 10, once daily dosing).
CC(=O)N1CC(C(=O)Nc2ccc(C3CCCCC3)cc2)C1 has a hepatic clearance of 12 mL/min/kg (hepatocyte stability; cryopreserved human hepatocytes; 1 µM).
For CCn1c(=O)c(-c2cc(NC(=O)Nc3ccccc3)c(F)cc2Br)cc2cnc(NC)cc21, “participants with grade ≥ 3 TEAE” read 37.5% (refers to: investigations; human, mild hepatic impairment; oral, 50 mg single dose).

For quick reference, copied from above:
CNCc1ccc(-c2[nH]c3cc(F)cc4c3c2CCNC4=O)cc1 gave a dysgeusia incidence of 0% (human patients; oral, 600 mg twice daily, grade 4).
C[C@@H](N)C1CCN(S(=O)(=O)c2cccc3cnccc23)CC1 — result for “participants, with TEAEs, treatment-related”: 16.7% (healthy volunteers; 75 mg, fasted).
With CCN1CCN(Cc2ccc(NC(=O)c3ccc(C)c(NC(=O)c4cncc(-c5cccs5)c4)c3)cc2C(F)(F)F)CC1 the plasma concentration was 80 ng/mL and 81 ng/mL and 44 ng/mL (LC-MS/MS; C57BL/6 mouse, plasma; intraperitoneal, 15 mg/kg single dose, 6 h).
